Measured values gathered from unrelated publications.
Each numbered part is a random draw from the data of one study; scales do not carry over between parts. Changes are numbered by the printed parent chain.

Set 1 — target: CCND2, cyclin fold, Cln2 fusion (human); method: yeast growth competition, sequencing; matrix: yeast; setting: weak parent motif; relative to: not given; reading: higher = stronger binding; starting sequence: viral docking peptide; KGVKRKLFAEDSS
Variant	normalised enrichment score
KGVKRKLFAWDSS [E10W]	-0.313
KGVKFKLFAEDSS [R5F]	-0.0865
KGVKRKLFTEDSS [A9T]	-0.00725

Set 2 — method: RNA Bind-n-Seq; molecule type: RNA; matrix: in vitro; tested at: 365 nM; relative to: no-protein control; reading: higher = stronger binding
Target: RNA binding protein fox-1 homolog 2, RRM domain, GST-SBP tag (RBFOX2, Homo sapiens, UniProt O43251-10, residues 100-194)
Setting: natural RNA segment, single round, ends assumed
Constant ends, left off below: GGGAGUUCUACAGUCCGACGAUC … UGGAAUUCUCGGGUGCCAA
Construct (chain): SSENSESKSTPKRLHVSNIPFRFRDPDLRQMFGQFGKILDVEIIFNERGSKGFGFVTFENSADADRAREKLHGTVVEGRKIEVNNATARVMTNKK
Sequence	RBNS enrichment (R)
GGACUUUUCCUGUCACUGUGAACUUUGCUGGUUAUCUGCCUUCAAUUUUUGGACCACAAACCACCCUGCAGCUUCUUAAACCUUUCCCCAACCUACCACCCAAAAGAACC	0.822
UUGAACAGUGUGAUGAGAAUAGGAAUGUGGUGUUUUAAAGCAGUGUUGCAUUUUAAUCAGUAAUCUACCUGGUGGAUUUGUUUUUAACCAAAAAGAUGAAUUAUCAAUGA	0.97
GGGCUGUUGUGAGGAAAUAAAAUGAAAUGGAGUAUGUGAAAUUGCUUCAGCAACAGCAAAGUGCUACGUAAAUGUAAAGUGUUGUUUUUAGCUAAUAAUGGAUUUAAGUG	2.91
CACCAUGAUCUACGGGACUGUGCUUGGUCCUUUGCUUCUGCCCGUUCCCAUCUCACCUCACCAUUCCGCUAUAAGGCUUUUUAGCAUUUUAGGGCCAGGAGAGAGAGAGA	0.221
GGAUGUAUACAGACUUAUUUUCUUUAUUACAGUAUUAUAAGAAAACAUAUGUAUUUGUAAAAAUGGUUUCCUGUGUCAAGUAUUUGUGCAGUCAGAGCUGACUUGUAAAC	0.821
GUGGUGGUGGUGCUCAGCCUAAUCAAAACUGUGUGUCUGCAAGUUUGAAGAAAAUGGAGACAGCUAGAACAAGCCCCCAGACUGCAAUCACUGGCUCCAGAAUUGUCUUU	0.842
AUUGGAUAUUUAUGUUCACACAGGAAUUUGGUUUACUGCUUUGUAAAUAAAAGGAAAAACUCCGGGUUAUGUAUAGAUGUUCUUCAUUAUAGACAUCUUCUUUGCUUUUC	1.43
GUGUCAUGCUGCUGCUGUGAUCUUCAGCCUGCCUUGCCUGGAAACAUGGCAAAGACAAUGCUGACACCACUCCACUGUGAGAGCAUAGUCUGGGGACACUGACUCAGCGA	0.215

Set 3 — target: inorganic phosphate, free oxyanion; method: microfluidic competitive inhibition; matrix: in vitro, cell-free expressed; tested at: not given; reading: lower = stronger binding
Setting: derived from inhibition constants, unchanged parent 615000 nM
Starting sequence: PafA, mature enzyme, eGFP fusion (Elizabethkingia meningoseptica, UniProt Q9KJX5); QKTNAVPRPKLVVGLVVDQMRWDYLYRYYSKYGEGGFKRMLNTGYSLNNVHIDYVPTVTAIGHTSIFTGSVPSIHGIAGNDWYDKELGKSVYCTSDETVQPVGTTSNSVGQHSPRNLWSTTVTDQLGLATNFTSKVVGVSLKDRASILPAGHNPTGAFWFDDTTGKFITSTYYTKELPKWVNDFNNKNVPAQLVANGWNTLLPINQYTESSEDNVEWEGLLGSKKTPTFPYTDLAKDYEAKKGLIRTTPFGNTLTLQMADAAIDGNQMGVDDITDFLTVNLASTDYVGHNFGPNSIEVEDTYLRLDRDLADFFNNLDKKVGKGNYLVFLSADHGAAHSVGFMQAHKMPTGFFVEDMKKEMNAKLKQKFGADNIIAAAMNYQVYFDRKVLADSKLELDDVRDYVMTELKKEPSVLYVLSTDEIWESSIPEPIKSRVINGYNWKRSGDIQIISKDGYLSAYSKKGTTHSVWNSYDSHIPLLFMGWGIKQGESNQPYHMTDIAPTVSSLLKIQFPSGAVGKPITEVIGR
Variant	phosphate dissociation constant
T174G	603 µM
M20G	380 µM
M342G	408 µM

Set 4 — method: RNA Bind-n-Seq; molecule type: RNA; matrix: in vitro; tested at: not given; relative to: input RNA pool; reading: higher = stronger binding
Target: RING finger protein unkempt homolog, zinc fingers 1-6, GST-SBP tag (UNK, Homo sapiens, UniProt Q9C0B0, residues 30-357)
Sequence of UniProt Q9C0B0 (30-357, looked up): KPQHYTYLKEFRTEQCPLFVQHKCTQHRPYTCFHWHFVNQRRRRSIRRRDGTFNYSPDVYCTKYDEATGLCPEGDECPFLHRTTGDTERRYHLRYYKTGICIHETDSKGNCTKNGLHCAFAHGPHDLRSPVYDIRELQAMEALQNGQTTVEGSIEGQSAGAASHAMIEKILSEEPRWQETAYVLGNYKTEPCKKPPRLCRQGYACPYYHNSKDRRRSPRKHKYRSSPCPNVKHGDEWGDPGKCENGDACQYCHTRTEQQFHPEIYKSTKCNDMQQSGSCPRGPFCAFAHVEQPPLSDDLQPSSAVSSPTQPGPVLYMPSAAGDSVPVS
Setting: RNA with constant flanks, human-mouse chimeric sites, ends assumed
Constant ends, left off below: GGGAGUUCUACAGUCCGACGAUC … CAACAGAGGAUUGAGCAUCA
Sequence	bound/input enrichment [ratio]
UUCAAAGAAAAGGGCAGCUGUGUCAUUUCAUAAGUAACUCUGGGGGAUAAGUGGAAGGUUCUUUUGUUUAAUUUUCCCCCAAAUGAAACCAACAUGCGUGUUGAAGAACUGAGAAAAAAU	0.205
UACAUUUUAUUGUUGAGUUUCAUUUUCAUAUAUUCUUGUAGUGUCUGCUUGCCUGUGACUUCUGGUAAAAUAAGACUAGCCUUUGAAAAUAUUUUAGCAUGGUAUUUAACAUUUUCUAAA	9.33
AUGCAGUAUGAGACCAACAGCAUGGACUUCAAAGUUGGGGCAGAUGGGACAGUCUUCGCCACCCGGGAGCUGCAGGUCCCCUCCGAGCAGGUGGCCUUCACGGUGACUGCAUGGGACAGC	0.184
AAAGAACCUCUCUCUGAAGAAGAGGAAGAAGACAAUGAUGAUGUUGAACCCAUUUCUGAAUUUAGAUUUGUGCCCAGUGAUAAGUCAGCAUUGGAGGCGAUGUUCACAGCAAUGUGUGAG	1.21
UUCAAAGAAAAGGGCAGCUGUGUCAUUACUUGGGAGAAACUGCAUCCGGGAAAUUCUGUUCUUUUGUUUAAUUUUCCCCCAAAUGAAGCCAAAGUGUGUGUUGAAGAACUGAGAAAAAAU	0.163
CGCUGGCCCAAGCUGAUGGACUCUGAUGGCCUCCAUCUCUCAGGCACGUGUGCCUUCUCUUAGUUAUUGUUUUCGGGAUGUUAUGAAUCUCAGUACUGUUUGACAGAAGCACCAGCUUUG	6.54
CGCUGGCCCAAGCUGAUGGACUCUGAUGGCCUCCAUCUCUCAGGCACGUUUGCCUUCUCUUAGUCCCUUCUGGGUUGAUGUUAUGAAUCUCAGUACUGUGGUUUGAAAGCACCAGCUUUG	0.437
GUACUGCAGCAGCAGGGCAAGCUGCAGGAAGCUCUGAUGCAUUAUAAGGAGGCUAUUCGAAUCAGUCCUACCUUUGCUGAUGCCUACUCUAAUAUGGGAAACACUCUAAAGGAGAUGCAG	0.221

Some of these lines once more (set 4):
Sequence	bound/input enrichment [ratio]
UUCAAAGAAAAGGGCAGCUGUGUCAUUUCAUAAGUAACUCUGGGGGAUAAGUGGAAGGUUCUUUUGUUUAAUUUUCCCCCAAAUGAAACCAACAUGCGUGUUGAAGAACUGAGAAAAAAU	0.205
